Published values gathered from unrelated publications.
± gives the spread as reported.
CHRM1: Muscarinic acetylcholine receptor M1 (CHRM1, Homo sapiens, UniProt P11229)
Chain of UniProt P11229 (whole entry, looked up): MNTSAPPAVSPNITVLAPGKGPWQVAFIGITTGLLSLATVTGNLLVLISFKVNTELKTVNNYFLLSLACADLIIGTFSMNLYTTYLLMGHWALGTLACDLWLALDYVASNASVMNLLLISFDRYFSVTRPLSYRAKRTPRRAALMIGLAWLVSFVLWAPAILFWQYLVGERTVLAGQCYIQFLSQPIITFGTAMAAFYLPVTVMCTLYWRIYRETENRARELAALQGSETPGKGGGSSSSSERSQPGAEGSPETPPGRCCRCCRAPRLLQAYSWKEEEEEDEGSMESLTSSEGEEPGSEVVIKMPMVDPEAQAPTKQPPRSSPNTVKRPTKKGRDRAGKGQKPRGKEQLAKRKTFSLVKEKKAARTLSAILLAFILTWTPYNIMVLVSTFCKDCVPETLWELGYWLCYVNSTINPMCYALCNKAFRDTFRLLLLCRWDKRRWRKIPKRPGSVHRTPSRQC
T1: DNA G4, G-quadruplex (Homo sapiens); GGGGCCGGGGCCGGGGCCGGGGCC
Chain of UniProt P11087 (whole entry, looked up): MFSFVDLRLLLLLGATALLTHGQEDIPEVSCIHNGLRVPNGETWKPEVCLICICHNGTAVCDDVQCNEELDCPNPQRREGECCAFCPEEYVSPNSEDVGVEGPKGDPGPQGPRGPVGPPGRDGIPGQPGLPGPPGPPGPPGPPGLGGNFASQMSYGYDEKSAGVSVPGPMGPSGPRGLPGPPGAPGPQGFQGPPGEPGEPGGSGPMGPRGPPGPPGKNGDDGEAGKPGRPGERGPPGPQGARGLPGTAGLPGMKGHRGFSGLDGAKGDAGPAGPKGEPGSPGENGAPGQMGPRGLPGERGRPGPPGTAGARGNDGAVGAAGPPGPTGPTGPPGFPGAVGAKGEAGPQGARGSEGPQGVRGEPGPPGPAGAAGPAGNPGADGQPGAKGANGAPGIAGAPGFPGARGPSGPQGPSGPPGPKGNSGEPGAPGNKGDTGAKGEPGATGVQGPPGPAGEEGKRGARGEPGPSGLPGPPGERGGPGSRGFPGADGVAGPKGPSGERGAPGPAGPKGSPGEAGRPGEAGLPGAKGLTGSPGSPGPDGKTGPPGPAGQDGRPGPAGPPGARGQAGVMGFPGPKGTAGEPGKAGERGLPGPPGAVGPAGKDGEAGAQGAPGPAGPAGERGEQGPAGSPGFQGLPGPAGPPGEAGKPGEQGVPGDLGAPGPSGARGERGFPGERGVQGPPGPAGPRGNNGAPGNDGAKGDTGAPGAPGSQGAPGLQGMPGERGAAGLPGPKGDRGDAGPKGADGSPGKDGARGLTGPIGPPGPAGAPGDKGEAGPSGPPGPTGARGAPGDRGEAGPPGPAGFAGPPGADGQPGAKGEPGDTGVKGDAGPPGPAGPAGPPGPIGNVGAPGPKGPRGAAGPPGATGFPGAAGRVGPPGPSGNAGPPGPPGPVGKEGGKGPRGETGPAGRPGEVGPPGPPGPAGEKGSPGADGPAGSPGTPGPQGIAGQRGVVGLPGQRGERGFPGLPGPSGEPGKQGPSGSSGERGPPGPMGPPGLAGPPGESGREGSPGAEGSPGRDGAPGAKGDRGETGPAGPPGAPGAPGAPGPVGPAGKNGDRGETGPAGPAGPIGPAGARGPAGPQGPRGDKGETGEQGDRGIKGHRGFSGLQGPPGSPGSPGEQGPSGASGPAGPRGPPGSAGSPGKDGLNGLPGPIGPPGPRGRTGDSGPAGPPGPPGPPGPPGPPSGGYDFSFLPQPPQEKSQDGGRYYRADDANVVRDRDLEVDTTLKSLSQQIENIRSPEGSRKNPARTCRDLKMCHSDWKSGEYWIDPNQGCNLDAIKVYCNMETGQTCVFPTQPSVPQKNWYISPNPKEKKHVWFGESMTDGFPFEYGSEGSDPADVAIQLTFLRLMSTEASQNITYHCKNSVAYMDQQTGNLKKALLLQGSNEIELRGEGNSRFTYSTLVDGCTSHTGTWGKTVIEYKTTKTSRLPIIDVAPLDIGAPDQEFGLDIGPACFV
Chain of UniProt P62813 (whole entry, unmodified, looked up): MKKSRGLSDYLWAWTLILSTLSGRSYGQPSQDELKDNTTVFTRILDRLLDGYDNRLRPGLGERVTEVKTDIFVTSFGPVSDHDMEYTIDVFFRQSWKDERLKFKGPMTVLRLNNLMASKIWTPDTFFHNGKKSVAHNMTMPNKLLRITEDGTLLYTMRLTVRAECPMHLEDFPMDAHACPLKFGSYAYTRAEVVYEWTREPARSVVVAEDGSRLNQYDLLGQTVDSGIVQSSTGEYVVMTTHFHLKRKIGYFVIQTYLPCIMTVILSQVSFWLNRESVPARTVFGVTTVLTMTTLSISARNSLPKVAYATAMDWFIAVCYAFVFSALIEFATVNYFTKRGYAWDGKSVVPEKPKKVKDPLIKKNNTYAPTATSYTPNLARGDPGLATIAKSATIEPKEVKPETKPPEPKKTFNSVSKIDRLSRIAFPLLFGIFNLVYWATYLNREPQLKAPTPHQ
Chain of UniProt Q92731 (whole entry, looked up): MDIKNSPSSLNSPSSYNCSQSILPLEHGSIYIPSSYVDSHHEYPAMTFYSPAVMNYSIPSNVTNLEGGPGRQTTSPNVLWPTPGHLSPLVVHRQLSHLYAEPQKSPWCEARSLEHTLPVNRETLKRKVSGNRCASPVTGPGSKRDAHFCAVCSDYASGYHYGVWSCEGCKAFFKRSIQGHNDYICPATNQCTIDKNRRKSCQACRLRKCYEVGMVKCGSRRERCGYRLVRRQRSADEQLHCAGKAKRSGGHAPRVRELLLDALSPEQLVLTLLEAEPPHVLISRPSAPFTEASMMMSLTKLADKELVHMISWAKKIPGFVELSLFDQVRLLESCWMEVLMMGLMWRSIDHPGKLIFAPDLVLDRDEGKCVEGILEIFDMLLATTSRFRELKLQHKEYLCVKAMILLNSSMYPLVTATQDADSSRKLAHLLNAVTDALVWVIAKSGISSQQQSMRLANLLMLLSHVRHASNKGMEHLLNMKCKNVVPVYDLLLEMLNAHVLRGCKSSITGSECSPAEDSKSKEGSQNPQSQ
Chain of UniProt P08173 (whole entry, looked up): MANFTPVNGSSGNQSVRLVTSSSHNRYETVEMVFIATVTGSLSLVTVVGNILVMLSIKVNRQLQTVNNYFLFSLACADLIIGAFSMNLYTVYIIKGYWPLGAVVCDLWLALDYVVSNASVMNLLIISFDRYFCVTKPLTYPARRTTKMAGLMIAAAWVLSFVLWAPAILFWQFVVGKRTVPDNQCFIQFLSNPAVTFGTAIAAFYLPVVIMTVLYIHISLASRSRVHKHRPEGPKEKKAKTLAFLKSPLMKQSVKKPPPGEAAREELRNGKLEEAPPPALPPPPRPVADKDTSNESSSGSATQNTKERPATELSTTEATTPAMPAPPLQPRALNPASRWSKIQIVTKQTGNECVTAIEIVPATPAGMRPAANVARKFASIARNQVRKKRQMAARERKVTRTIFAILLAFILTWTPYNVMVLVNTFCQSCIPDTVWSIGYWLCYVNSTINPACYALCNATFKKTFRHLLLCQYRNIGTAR
Chain of UniProt Q01149 (whole entry, looked up): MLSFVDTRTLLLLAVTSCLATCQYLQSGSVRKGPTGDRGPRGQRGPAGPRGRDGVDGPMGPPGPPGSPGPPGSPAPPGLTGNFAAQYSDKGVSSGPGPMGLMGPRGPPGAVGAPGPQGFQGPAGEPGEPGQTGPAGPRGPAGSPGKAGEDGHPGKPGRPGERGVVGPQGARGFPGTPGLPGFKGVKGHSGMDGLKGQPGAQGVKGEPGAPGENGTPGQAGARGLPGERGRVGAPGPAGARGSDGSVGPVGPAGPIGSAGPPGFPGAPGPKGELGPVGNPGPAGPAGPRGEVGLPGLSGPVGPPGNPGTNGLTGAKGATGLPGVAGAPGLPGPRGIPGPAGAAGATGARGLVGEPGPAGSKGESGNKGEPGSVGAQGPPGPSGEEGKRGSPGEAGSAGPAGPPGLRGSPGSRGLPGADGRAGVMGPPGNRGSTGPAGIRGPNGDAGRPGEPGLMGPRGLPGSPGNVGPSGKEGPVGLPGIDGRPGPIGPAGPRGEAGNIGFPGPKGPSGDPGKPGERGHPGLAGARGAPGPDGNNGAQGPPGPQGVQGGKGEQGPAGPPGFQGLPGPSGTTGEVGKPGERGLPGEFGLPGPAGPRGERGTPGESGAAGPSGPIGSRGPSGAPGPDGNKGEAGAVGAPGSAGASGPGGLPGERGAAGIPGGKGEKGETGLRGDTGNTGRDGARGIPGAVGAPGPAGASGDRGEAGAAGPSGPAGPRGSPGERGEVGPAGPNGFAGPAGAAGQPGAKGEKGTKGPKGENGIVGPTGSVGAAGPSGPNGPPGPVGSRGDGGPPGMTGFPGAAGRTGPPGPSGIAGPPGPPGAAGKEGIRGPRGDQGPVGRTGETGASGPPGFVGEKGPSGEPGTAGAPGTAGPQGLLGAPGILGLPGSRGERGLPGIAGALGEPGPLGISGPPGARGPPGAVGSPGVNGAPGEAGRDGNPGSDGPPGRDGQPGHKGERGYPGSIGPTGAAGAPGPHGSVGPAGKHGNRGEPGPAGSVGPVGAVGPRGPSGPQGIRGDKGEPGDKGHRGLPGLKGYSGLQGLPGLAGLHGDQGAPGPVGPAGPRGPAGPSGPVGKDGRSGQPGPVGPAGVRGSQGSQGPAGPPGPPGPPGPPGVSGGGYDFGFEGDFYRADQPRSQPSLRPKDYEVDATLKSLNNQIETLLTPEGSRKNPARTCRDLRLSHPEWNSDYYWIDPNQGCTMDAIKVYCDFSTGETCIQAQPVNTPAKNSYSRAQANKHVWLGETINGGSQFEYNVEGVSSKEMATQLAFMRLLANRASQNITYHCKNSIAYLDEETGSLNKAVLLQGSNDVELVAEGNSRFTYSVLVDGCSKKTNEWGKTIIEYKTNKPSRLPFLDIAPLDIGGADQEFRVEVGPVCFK

For CC1(C)Cc2cc(Cl)cc(C3CC3CN)c2O1 (racemic), EC50 read “inactive” (5-hydroxytryptamine receptor 2B (HTR2B, Homo sapiens, UniProt P41595); agonist, FLIPR calcium flux; HEK293; up to 10 µM).
The efficacy of O=S(=O)(C1CC2OC1C(c1ccc(O)cc1)=C2c1ccc(O)cc1)N(CC(F)(F)F)c1ccc(Cl)cc1 (stereo not drawn) is reported as 7 ± 2% (Estrogen receptor beta (ESR2, Homo sapiens, UniProt Q92731); reporter gene, antagonist; HepG2; added: estradiol 10 nM; reference: E2 response, negative is inverse agonism).
For CC(C)=CCC/C(C)=C/CC/C(C)=C/CO, the dehydrogenase activity was 43 U/mg (All-trans-retinol dehydrogenase [NAD(+)] ADH7 (Adh7, Rattus norvegicus, UniProt P41682); substrate; 0.1 mM, pH 7.4, added: 2 mM NAD+).
COc1ccc(COc2ccccc2-c2cc(=O)n(C3CCCCC3O)cn2)cc1 (stereo not drawn) — result for “change in baseline activity”: 49.6 ± 4.2 (CHRM1; allosteric agonist, IP1 accumulation; CHO-M1 cells; 10 µM, unit not given; reference: maximum ACh response).
Under “binding enthalpy ΔH”, C[C@H](N)C(=O)N[C@@H](CCCNC(=N)N)C(=O)N[C@H](C(=O)N[C@@H](CCCCN)C(=O)N[C@@H](CCC(N)=O)C(=O)N[C@H](C(=O)N[C@@H](C)C(=O)N[C@@H](CCCNC(=N)N)C(=O)N[C@@H](CCCCN)C(=O)N[C@@H](COP(=O)(O)O)C(=O)O)[C@@H](C)O)[C@@H](C)O is recorded as -9.6 ± 0.1 kcal/mol (Autoimmune regulator, PHD1 domain (AIRE, Homo sapiens, UniProt O43918); ITC; concentration not given, pH 7.2, 23 °C).
Cn1ncc2ccc(COc3ccccc3-c3cc(=O)n(C4CCCCC4O)cn3)cc21 (stereo not drawn) — result for “change in baseline activity”: 46.3 ± 1.8 (CHRM1; allosteric agonist, IP1 accumulation; CHO-M1 cells; 1 µM, unit not given; reference: maximum ACh response).
COCCN(CCOC)C(C)C(=O)Nc1c(C)csc1C(=O)OC (stereo not drawn) — result for “capacity factor k′”: 2.6 (Sodium channel protein type 10 subunit alpha (SCN10A, Homo sapiens, UniProt Q9Y5Y9); cell membrane chromatography; higher = stronger binding).
CC(=O)Cc1cc2c(c(O)c1C(=O)O)-c1c(c(O)c3oc4c(O[C@@H]5OC(C(=O)O)=C[C@H](O)[C@H]5O)cccc4c(=O)c3c1O)CC2 has a Kd of 2200 µM (T1, DNA G4, G-quadruplex (Homo sapiens); fluorescence intensity titration; pH 6.8, KCl 8 mM, one site with Hill slope).
The direct activation of CC1(C)C=Cc2c(ccc3c2OC[C@@H](c2ccc(O)cc2O)C3)O1 is reported as 0 (Gabra1/Gabrb2, with gamma2 subunit (Rattus norvegicus, UniProt P62813+P63138, M310W); ion current, agonist, two-electrode voltage clamp; Xenopus laevis oocytes expressing α1β2(M286W)γ2; 30 µM, unit not given, added: no GABA; reference: GABA current).
O=c1cc(N2CCOCC2)oc2c(OCc3cccnc3)cccc12: “fold change in selectivity” 10.6 (Phosphatidylinositol 4,5-bisphosphate 3-kinase catalytic subunit alpha isoform (PIK3CA, Homo sapiens, UniProt P42336, H855E); enzyme activity; concentration not given, His-Glu swap; reference: wild type).
For COC(=O)c1ccc(COc2ccccc2-c2cc(=O)n(C3CCCCC3O)cn2)cc1 (stereo not drawn), “change in baseline activity” read -12.5 ± 2.5 (CHRM1; allosteric agonist, IP1 accumulation; CHO-M1 cells; 1 µM, unit not given; reference: maximum ACh response).
The lung uptake of CC(C)C[C@H](NC(=O)[C@@H]1CSSC[C@H](NC(=O)[C@H](Cc2c[nH]cn2)NC(=O)[C@H](Cc2c[nH]c3ccccc23)NC(=O)[C@H](CCCCNC(=O)CNC(=O)CCC(C(=O)O)N2CCN(CC(=O)O)CCN(CC(=O)O)CC2)NC(=O)CCC(C(=O)O)N2CCN(CC(=O)O)CCN(CC(=O)O)CC2)C(=O)N[C@@H]([C@@H](C)O)C(=O)N[C@@H]([C@@H](C)O)C(=O)N[C@@H](CCCCNC(=O)CNC(=O)CCC(C(=O)O)N2CCN(CC(=O)O)CCN(CC(=O)O)CC2)C(=O)N[C@@H](Cc2ccccc2)C(=O)N2CCC[C@H]2C(=O)N[C@@H](Cc2c[nH]cn2)C(=O)N[C@@H](Cc2c[nH]cn2)C(=O)N[C@@H](Cc2ccc(O)cc2)C(=O)N1)C(=O)N[C@@H](Cc1ccc(O)cc1)C(=O)N[C@@H](Cc1ccc(-c2ccccc2)cc1)C(N)=O (stereo partly drawn) [gallium-68 labelled] is reported as 0.028 ± 0.005 %ID/lung (Col1a1/Col1a2 (Mus musculus, UniProt P11087+Q01149); ex vivo gamma counting; mouse bleomycin pulmonary fibrosis, lung; dose not given, 150 min post injection, bleomycin 2.5 U/kg, day 7).
COc1ccc(C)c2sc(NC(=O)CC(C)(C)C)nc12: activity “inactive” (Muscarinic acetylcholine receptor M4 (CHRM4, Homo sapiens, UniProt P08173); calcium mobilization, positive allosteric modulator; CHO expressing hM4 and Gqi5; concentration not given, added: acetylcholine EC20).
CN(C)C(=O)c1ccc(COc2ccccc2-c2cc(=O)n(C3CCCCC3O)cn2)cc1 (stereo not drawn) — result for “ΔpEC50 of ACh”: 0.98 ± 0.11 log units (CHRM1; positive allosteric modulator, IP1 accumulation; CHO-M1 cells; 10 µM, 60 min, 37 °C, added: ACh; reference: ACh alone, higher = stronger potentiation).
Oc1ccc(C2CNCCc3c2cc(O)c(O)c3Cl)cc1 (stereo not drawn) has an IC50 ratio of 1.3 (Lysine-specific demethylase 4E (KDM4E, Homo sapiens, UniProt B2RXH2); inhibitor, FDH-coupled; reference: 20 µM over 2.5 µM ferrous ammonium sulfate).

Repeated from above:
CC(=O)Cc1cc2c(c(O)c1C(=O)O)-c1c(c(O)c3oc4c(O[C@@H]5OC(C(=O)O)=C[C@H](O)[C@H]5O)cccc4c(=O)c3c1O)CC2 has a Kd of 2200 µM (T1, DNA G4, G-quadruplex (Homo sapiens); fluorescence intensity titration; pH 6.8, KCl 8 mM, one site with Hill slope).
